# Published values of several laboratories.
# Several values in a cell are separate wells, animals, samples, runs or records.
# Target: Serine/threonine-protein kinase PLK2 (PLK2, Homo sapiens, UniProt Q9NYY3)
SMILES,test,conditions,how to read,measurement,value
COCC12C(=O)NC3C4(C(OC)CC1O)C1CC5(O)C(OC)C(O)C(OC(C)=O)(C1C5OC(=O)c1ccccc1)C3(O)C(OC)C24 (centres unmarked),"kinase activity, inhibitor, ProQinase kinase profiling",25 µM,relative to: control,remaining activity,101% and 108%
COc1cc(Nc2nc(C)cc(-c3cnn4nc(OC)ccc34)n2)cc(C(F)(F)F)c1,inhibitor,1 µM,relative to: control,remaining activity,77%
CN1CCN(Cc2ccc(-c3ccc(CO[C@H]4CCC[C@@H]4NC(=O)c4cc(-c5cnn(C)c5)cnc4N)cc3)cc2)CC1,"enzyme activity, inhibitor",0.1 µM,,inhibition,5%
CNC(=O)C[C@H](Cc1ccc(C#N)cc1)NC(=O)c1cc(-c2ccc(CN[C@H](C)c3ccc(C)cc3)o2)ccc1Cl,"enzyme activity, inhibitor",1 µM,,activity vs control,105%
COc1ccc(NC(=O)Nc2ccc3c(c2)C(=O)N(C(C)CO)CC(C)C(CN(C)Cc2ccc4c(c2)OCO4)O3)cc1 (centres unmarked),"kinase activity, KinaseProfiler","0.03 µM, species human",relative to: control,remaining activity,92%
NC(=O)[C@@H](O)C[C@H]1CCc2sc3ncnc(O[C@H]4CC[C@H](N5CCOCC5)CC4)c3c21,"enzyme activity, inhibitor",10 µM,,inhibition,0%
Cc1cnc2nc1Nc1cccc(c1)COC/C=C/COCc1cc(ccc1OCCN1CCOCC1)N2,,concentration not given,,percent of control,90%
C=CC(=O)N1Cc2nc(-c3cc(-c4cc(Cl)cnc4Cl)c(F)cc3F)n(-c3ccncn3)c2C1,"cell-free assay, inhibitor",1 µM,,inhibition,4.7%
CC(C)=CC1OC(C)(C)C2C=C3C(=O)C(Cl)=CC(O)C3C3C(O)C4OC4C(=O)C132 (centres unmarked),"cell-free assay, competition with immobilised ligand",10 µM,,remaining binding,58%
Cc1ccc(-c2c(/C=C(\C#N)C(=O)NC(C)C)n(CCCO)c3ncnc(N)c23)cc1,"cell-free assay, competition with immobilised ligand",1 µM,,remaining binding,91%
CNC(=O)C1CCN(c2cc(C)c(F)cc2NC(=O)c2ccc(-c3cc(O)ccc3C)c(C)c2)CC1,"binding, competition with immobilised ligand",1 µM,,remaining binding,81%
CCN1CCN(Cc2ccc(C(=O)Nc3ccc(C)c(NCc4cnc5[nH]ccc5c4OC)c3)cc2C(F)(F)F)CC1,"binding, competition with immobilised ligand",1 µM,,remaining binding,100%
CNC1C[S+]2CC[S+]3CC[S+](C1)[Ru-4]321([N]=C=S)[n]2c3ccc(OC)cc3c3c4c(c5cc(F)c[n+]1c5c32)C(=O)NC4=O (centres unmarked),KinomeScan,0.1 µM,relative to: untreated,remaining binding,67%
C=CC(=O)N1CCCC(n2c(=O)c3ncccc3n(Cc3ccc(Oc4ccccc4)cc3)c2=O)C1 (centres unmarked),"cell-free assay, competition with immobilised ligand",1 µM,,remaining binding,69%

# Repeated from above:
SMILES,test,conditions,how to read,measurement,value
CC(C)=CC1OC(C)(C)C2C=C3C(=O)C(Cl)=CC(O)C3C3C(O)C4OC4C(=O)C132 (centres unmarked),"cell-free assay, competition with immobilised ligand",10 µM,,remaining binding,58%
